Results pooled from the literature.
A part holds a random share of what one study measured.

Set 1 — method: protein binding microarray; form: double-stranded DNA, one strand shown; medium: in vitro; concentration: not given; reference: not given; direction: higher = stronger binding
Target: Histone acetyltransferase KAT6A, winged helix 1, GST fusion (KAT6A, Homo sapiens, UniProt Q92794, residues 1-85)
Notes: 8-mer, flanks averaged, mean of 2 arrays, mostly near background
Target sequence (chain): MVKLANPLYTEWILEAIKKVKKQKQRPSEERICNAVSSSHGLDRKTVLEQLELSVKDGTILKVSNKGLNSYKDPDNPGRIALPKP
| Strand | E-score |
| --- | --- |
| GGCCAAAC | 0.115 |
| ATGTTAAT | -0.167 |
| TAAGACCA | -0.132 |
| GAAGCGAC | 0.132 |
| CGGGGAAG | 0.22 |
| GCCATACC | -0.0157 |
| AAGGCGTG | 0.0889 |

Set 2 — method: RNA Bind-n-Seq; form: RNA; medium: in vitro; concentration: 200 nM; notes: whole 134-nt RNA, ends assumed; together with: 150 mM KCl; reference: input library; direction: higher = stronger binding
Target: Ras GTPase-activating protein-binding protein 1, full length (G3BP1, Homo sapiens, UniProt Q13283)
Chain of UniProt Q13283 (whole entry, looked up): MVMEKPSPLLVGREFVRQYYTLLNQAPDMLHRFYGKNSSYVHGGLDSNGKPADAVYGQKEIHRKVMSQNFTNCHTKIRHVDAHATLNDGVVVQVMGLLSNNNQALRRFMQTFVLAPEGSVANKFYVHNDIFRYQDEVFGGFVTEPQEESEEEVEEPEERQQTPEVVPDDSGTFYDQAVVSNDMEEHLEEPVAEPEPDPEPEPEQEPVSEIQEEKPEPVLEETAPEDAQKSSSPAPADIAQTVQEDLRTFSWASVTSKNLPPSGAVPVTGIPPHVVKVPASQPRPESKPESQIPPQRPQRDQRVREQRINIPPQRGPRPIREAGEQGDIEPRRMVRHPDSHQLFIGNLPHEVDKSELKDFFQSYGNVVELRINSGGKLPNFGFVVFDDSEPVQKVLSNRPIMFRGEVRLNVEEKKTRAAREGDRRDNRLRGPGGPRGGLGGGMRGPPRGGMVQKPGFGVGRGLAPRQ
Shared flanks, not repeated: GGGAGUUCUACAGUCCGACGAUC … UGGAAUUCUCGGGUGUCAAGG
| Strand | log2 enrichment |
| --- | --- |
| AGUCCUGUGCUACACAUCGUAUGUACCGAAUCGGAAAAAAAGGAAAAAGGUUUUUGGAAAGUAUUAUGUUACGCCGUUCGGAUCUGCACU | -1.69 |
| UCCUGUGCUACACAUCGUAUGUACCGAAUCGGGGAAAAAAAGGGGUUUGGGGAAAGGGGAAAGUAUUAUGUUACGCCGUUCGGAUCUGCA | 0.869 |
| UUCCUCAAGUCCUGUGCUACACAUCGUAUGUACCGAAUCGGCGGCGGGCGGAAAGUAUUAUGUUACGCCGUUCGGAUCUGCACUUCCAGC | -0.32 |
| CCUGUGCUACACAUCGUAUGUACCGAAUCGGGGUUUUUGGGGUUUGGGGAAAAAAAGGGGAAAGUAUUAUGUUACGCCGUUCGGAUCUGC | -0.00686 |
| UGGCCCUGGUGGCAUGCUGGGAGGAAGAGGUGGCCUCAUGGAUCGUGGUGGUCCCGGUGGAAUGUUCAGAGGUGGCCGUGGUGGAGACAG | 0.117 |
| CUCAAGUCCUGUGCUACACAUCGUAUGUACCGAAUCGGGGUGGGUGGGGUGGGGAAAGUAUUAUGUUACGCCGUUCGGAUCUGCACUUCC | 0.0452 |
| AUAUGAGUAAAAUCUGUCCCUUUUUCCCCCUUUGAAUGAGGUCUUCCAUGUUUGAGGGAAAGUCUUGCACUAUUGCAUAUAUUUUGGGGA | -0.157 |

Set 3 — method: protein-binding microarray; form: double-stranded DNA, one strand shown; medium: in vitro; concentration: 250 nM; notes: 60-bp whole probe; together with: salmon DNA 0.4 mg/ml; reference: random background probes; direction: higher = stronger binding; shared flanks, not repeated: GCCTAGCAC … GTCTTGATTCGCTTGACGCTGCTG
Target: Interferon regulatory factor 7, full length, phosphomimetic (IRF7, Homo sapiens, UniProt Q92985, residues 1-503, S101K/S471D/S472D/S475D/S476D/S477D/S483D/S484D/S487D)
Residues (chain): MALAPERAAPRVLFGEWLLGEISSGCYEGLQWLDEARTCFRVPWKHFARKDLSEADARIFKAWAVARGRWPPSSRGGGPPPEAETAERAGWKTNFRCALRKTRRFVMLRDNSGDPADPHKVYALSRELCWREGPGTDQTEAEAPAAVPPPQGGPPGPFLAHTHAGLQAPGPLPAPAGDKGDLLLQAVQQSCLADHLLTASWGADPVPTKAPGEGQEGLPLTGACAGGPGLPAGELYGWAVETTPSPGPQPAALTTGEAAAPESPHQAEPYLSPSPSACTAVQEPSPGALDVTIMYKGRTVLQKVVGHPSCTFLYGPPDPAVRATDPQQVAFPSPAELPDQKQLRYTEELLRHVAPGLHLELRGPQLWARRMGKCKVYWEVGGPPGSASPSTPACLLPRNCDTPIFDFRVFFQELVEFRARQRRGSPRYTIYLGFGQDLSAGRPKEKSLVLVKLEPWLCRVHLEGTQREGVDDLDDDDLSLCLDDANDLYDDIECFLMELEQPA
| Strand | log fluorescence |
| --- | --- |
| TCATTCCTCTCACCTCGGACTGTGCTA | 1.7 z-score |
| GACGGTATCAGTATCGAGACGTGCTAG | 0.00699 z-score |
| GAAGATCTCAGTATCGAGACGTGCTAG | 0.177 z-score |
| GACGGGATCGACACTGGGGACGTGCTA | -0.792 z-score |
| GACGATATCGGGTATCGAGTCGTGCTA | 0.468 z-score |

Mixed results
| Molecule | target | test | test system | setting | how to read | measurement | result |
| --- | --- | --- | --- | --- | --- | --- | --- |
| PhoQ, residues 284 288 289 292 302 303 TSTLRA | PhoP, residues 12 14 15 18 19 TPWLV (Escherichia coli, UniProt P23836) | Sort-seq, item: YFP reporter | E. coli | PhoQ-PhoP variant library, together with: 10 µM Mg2+ | reference: high Mg2+ state, higher = stronger signaling | fold induction | 7.18 |

For quick reference, copied from above (set 2):
| Strand | log2 enrichment |
| --- | --- |
| AUAUGAGUAAAAUCUGUCCCUUUUUCCCCCUUUGAAUGAGGUCUUCCAUGUUUGAGGGAAAGUCUUGCACUAUUGCAUAUAUUUUGGGGA | -0.157 |
| CCUGUGCUACACAUCGUAUGUACCGAAUCGGGGUUUUUGGGGUUUGGGGAAAAAAAGGGGAAAGUAUUAUGUUACGCCGUUCGGAUCUGC | -0.00686 |
